Assay results of several laboratories.
Compare with care: the assays were run in different laboratories. ± gives the spread as reported.
Genome polyprotein NS2B-NS3 protease: Genome polyprotein, NS2B-NS3 protease (dengue virus type 2, UniProt P29990)
Chain of UniProt Q86Y97 (whole entry, looked up): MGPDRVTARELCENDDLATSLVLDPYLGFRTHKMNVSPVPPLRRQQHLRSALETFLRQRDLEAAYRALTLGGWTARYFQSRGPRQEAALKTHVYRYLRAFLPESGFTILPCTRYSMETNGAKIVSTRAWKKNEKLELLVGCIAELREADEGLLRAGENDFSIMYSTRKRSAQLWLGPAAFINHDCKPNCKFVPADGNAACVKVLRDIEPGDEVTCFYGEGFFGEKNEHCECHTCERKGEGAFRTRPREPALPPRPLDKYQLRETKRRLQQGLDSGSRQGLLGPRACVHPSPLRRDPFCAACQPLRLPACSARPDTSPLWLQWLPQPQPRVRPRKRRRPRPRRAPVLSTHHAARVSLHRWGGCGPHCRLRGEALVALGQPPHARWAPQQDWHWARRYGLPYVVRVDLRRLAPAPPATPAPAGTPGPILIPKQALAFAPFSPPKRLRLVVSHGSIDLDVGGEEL
Chain of UniProt Q96RI0 (whole entry, looked up): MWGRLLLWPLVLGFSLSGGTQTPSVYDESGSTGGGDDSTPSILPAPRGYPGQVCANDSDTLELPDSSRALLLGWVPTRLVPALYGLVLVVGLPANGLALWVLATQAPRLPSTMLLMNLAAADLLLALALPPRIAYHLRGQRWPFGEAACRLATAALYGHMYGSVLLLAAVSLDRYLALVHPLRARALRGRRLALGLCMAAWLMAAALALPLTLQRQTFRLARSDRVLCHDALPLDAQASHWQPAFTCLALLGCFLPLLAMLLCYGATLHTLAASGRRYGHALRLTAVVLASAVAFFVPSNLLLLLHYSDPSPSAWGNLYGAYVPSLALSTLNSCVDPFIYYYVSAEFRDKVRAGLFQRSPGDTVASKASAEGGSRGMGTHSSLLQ
Chain of UniProt P21452 (whole entry, looked up): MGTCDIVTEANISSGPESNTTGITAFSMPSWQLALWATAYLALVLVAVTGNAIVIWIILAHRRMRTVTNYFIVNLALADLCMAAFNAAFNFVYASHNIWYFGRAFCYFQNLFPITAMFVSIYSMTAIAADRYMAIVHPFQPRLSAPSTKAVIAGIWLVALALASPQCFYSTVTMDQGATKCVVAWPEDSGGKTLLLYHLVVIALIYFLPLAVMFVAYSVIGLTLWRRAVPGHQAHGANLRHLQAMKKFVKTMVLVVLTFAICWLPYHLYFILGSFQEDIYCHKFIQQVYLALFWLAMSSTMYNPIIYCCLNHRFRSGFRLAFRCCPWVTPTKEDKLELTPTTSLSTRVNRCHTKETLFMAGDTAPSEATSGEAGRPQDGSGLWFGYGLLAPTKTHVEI
Chain of UniProt Q7Z5W3 (whole entry, looked up): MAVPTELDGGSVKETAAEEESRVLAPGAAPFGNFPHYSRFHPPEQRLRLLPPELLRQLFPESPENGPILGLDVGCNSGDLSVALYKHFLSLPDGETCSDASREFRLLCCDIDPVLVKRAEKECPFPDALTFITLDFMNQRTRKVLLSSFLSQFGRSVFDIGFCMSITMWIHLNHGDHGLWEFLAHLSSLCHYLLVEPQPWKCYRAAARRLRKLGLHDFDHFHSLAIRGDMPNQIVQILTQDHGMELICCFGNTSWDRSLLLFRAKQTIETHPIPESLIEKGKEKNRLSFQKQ
Chain of UniProt P25929 (whole entry, looked up): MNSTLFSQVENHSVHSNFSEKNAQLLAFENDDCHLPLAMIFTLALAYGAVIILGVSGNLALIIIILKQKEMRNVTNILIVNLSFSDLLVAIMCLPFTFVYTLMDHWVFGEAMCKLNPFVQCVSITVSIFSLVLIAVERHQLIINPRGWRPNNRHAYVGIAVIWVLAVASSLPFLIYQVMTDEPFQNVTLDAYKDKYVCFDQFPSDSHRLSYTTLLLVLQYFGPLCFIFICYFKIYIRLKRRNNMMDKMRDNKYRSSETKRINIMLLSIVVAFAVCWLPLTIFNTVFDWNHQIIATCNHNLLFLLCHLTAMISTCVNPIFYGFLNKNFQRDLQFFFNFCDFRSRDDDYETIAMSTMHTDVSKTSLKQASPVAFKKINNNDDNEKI
Chain of UniProt P32241 (whole entry, looked up): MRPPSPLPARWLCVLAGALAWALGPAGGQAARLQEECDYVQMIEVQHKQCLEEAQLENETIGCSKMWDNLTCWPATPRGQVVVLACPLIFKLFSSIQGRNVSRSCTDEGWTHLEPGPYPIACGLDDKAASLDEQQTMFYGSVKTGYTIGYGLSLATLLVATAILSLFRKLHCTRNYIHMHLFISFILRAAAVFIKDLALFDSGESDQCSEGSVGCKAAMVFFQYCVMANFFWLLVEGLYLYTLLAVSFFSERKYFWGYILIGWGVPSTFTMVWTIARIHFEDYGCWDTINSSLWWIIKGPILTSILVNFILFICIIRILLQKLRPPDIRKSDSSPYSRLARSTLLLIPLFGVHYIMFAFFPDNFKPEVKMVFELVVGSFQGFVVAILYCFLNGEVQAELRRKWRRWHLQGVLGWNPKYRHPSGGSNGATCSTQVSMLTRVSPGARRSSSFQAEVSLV

O=C(Nc1cccc(N2CCOCC2)c1)c1cc(-c2ccccc2)n(-c2ccccc2)n1  inhibition (Genome polyprotein NS2B-NS3 protease; enzyme activity, fluorogenic AMC substrate; 50 µM): 59%
C/C=C/C(=O)Nc1ccc2nc(NCCCCCN(C)C)nc(NCCCCCCN(C)C)c2c1  inhibition (BCDIN3D (Homo sapiens, UniProt Q7Z5W3); enzyme activity, inhibitor, radiometric; 10 µM): 53%
C[Si](C)(C)C[C@@H](CN)CC(=O)O  inhibition (VIPR1 (Homo sapiens, UniProt P32241); ligand displacement, radioligand; 75 µM): 10%
Cc1cc(C(=O)Nc2cccc(C(N)=O)c2)n(Cc2ccccc2)n1  inhibition (Genome polyprotein NS2B-NS3 protease; reporter gene; HeLa; 12.5 µM): 36%
O=C1c2sc(-c3ccc(N4CCC(F)C4)nc3F)nc2CCN1c1cccnc1 (stereo not drawn)  inhibition (TACR2 (Homo sapiens, UniProt P21452); ligand displacement, radioligand; 1 µM): -8%
CN(C)C/C=C/C(=O)Nc1ccc2nc(NCCCCCN(C)C)nc(NCCCCCCN(C)C)c2c1  inhibition (KMT5C (Homo sapiens, UniProt Q86Y97); enzyme activity, inhibitor, radiometric; 10 µM): 42%
O=C1c2sc(-c3ccc(N4CCC(CO)CC4)nc3F)nc2CCN1c1cccnc1  inhibition (NPY1R (Homo sapiens, UniProt P25929); ligand displacement, radioligand; 1 µM): -1%
N#Cc1cc(NC(=O)c2cc(-c3ccccc3)n(-c3ccccc3)n2)ccc1N1CCCC1  inhibition (Genome polyprotein NS2B-NS3 protease; reporter gene; HeLa; 12.5 µM): 24 ± 13%
CCCCCCCCCCCCCCCC(=O)N[C@@H](CCCCN)C(=O)N[C@@H](CCCCN)C(=O)N[C@@H](CO)C(=O)N[C@@H](CCCNC(=N)N)C(=O)N[C@@H](C)C(=O)N[C@@H](CC(C)C)C(=O)N[C@@H](Cc1ccccc1)C(N)=O  inhibition (F2RL3 (Homo sapiens, UniProt Q96RI0); platelet aggregation, ex vivo LTA; human; 0.5 mg/kg, 14 days, added: AYPGKF 160 µM; reference: baseline): 26%

Excerpt of the above:
O=C1c2sc(-c3ccc(N4CCC(CO)CC4)nc3F)nc2CCN1c1cccnc1  inhibition (NPY1R (Homo sapiens, UniProt P25929); ligand displacement, radioligand; 1 µM): -1%
